# Published values collected from several papers.
# Protocols differ between the studies behind these lines. “And” joins repeats or separate records; there may be more than shown.
Compound,test,system,setting,how to read,endpoint,value
CCN(CC)c1ccc2c(c1)O[B-]1(c3ccc(C)cc3)OC(=O)C(c3ccccc3)=N[N+]1=C2 (stereo not shown),,toluene,,,absorption maximum,471 nm
CC(C)(C)NC(=O)C1CCN(Cc2cccc(/N=N/c3ccc(F)cc3F)c2)CC1,,DMSO,"25 µM, 25 °C",,"absorption maximum, trans isomer",334 nm
CCN(CC)c1ccc2c(c1)O[B-]1(c3c(C)cccc3C)OC(=O)C(c3ccccc3)=N[N+]1=C2 (stereo not shown),,toluene,,,absorption maximum,471 nm
CC1(C)C(=CC=C2CCCC(C=CC3=[N+](CCC[N+](C)(C)C)c4ccc(S(=O)(=O)O)cc4C3(C)C)=C2SCCOCCOCCC(=O)O)N(CCC[N+](C)(C)C)c2ccc(S(=O)(=O)O)cc21,,HEPES buffer with FBS,"pH 7.4, 50 mM HEPES, 30% FBS",,absorption maximum wavelength,778 nm
CCCCN1C(=O)c2cccc3c(NCCCCCCCCCCN4CCOCC4)ccc(c23)C1=O,,acetonitrile,,,absorption maximum,433 nm
CCN(CC)c1ccc2c(c1)O[B-]1(c3ccccc3OC)OC(=O)C(c3ccccc3)=N[N+]1=C2 (stereo not shown),,toluene,,,absorption maximum,464 nm
CCCCN1C(=O)c2cccc3c(NCCCCCCN4CCOCC4)ccc(c23)C1=O,,dichloromethane,,,absorption maximum,427 nm
CC(C)(C)NC(=O)C1CCN(Cc2cccc(N=Nc3ccc(F)cc3)c2)CC1,,DMSO,"25 µM, 25 °C",,"absorption maximum, cis isomer",437 nm
CCCCN1C(=O)c2cccc3c(NCCCCN4CCOCC4)ccc(c23)C1=O,,chloroform,,,absorption maximum,429 nm
C=Cc1ccccc1[B-]12OC(=O)C(c3ccccc3)=N[N+]1=Cc1ccc(N(CC)CC)cc1O2 (stereo not shown),,toluene,,,absorption maximum,470 nm
C=C[C@]1(C)C[C@@H](OC(=O)CSc2ccc(NC(=O)c3ccco3)cc2)[C@]2(C)[C@H](C)CC[C@]3(CCC(=O)[C@H]32)[C@@H](C)[C@@H]1O,,"chicken, Mycoplasmoides gallisepticum infected, plasma","intramuscular, 80 mg/kg",,absorption half-life,5.77 min and 6 min
CCCCN1C(=O)c2cccc3c(NCCCCCN4CCOCC4)ccc(c23)C1=O,,ethyl acetate,,,absorption maximum,428 nm
C=Cc1ccccc1[B-]12OC(=O)C(c3ccccc3)=N[N+]1=C(CC)c1ccc(N(CC)CC)cc1O2 (stereo not shown),,toluene,,,absorption maximum,470 nm
CC(C)(C)NC(=O)C1CCN(Cc2cccc(/N=N/c3ccc(F)c(F)c3F)c2)CC1,,DMSO,"25 µM, 25 °C",,"absorption maximum, trans isomer",332 nm
CCCCN1C(=O)c2cccc3c(NCCCN4CCOCC4)ccc(c23)C1=O,,DMSO,,,absorption maximum,443 nm
O=c1cc(/C=C/c2ccc(N3CCCC3)cc2)oc(/C=C/c2ccc(N3CCCC3)cc2)c1,UV-vis,nanoparticles in aqueous acetonitrile,,reference: acetonitrile solution,absorption bathochromic shift,2560 cm⁻¹

# A few entries again:
Compound,test,system,setting,how to read,endpoint,value
CC1(C)C(=CC=C2CCCC(C=CC3=[N+](CCC[N+](C)(C)C)c4ccc(S(=O)(=O)O)cc4C3(C)C)=C2SCCOCCOCCC(=O)O)N(CCC[N+](C)(C)C)c2ccc(S(=O)(=O)O)cc21,,HEPES buffer with FBS,"pH 7.4, 50 mM HEPES, 30% FBS",,absorption maximum wavelength,778 nm
